Measurements from different studies.
± marks the error that the study gave.
Organism: Arabidopsis thaliana

For `CCc1cccc2c(C(=O)COC(=O)C34CC5CC(CC(Br)(C5)C3)C4)c[nH]c12`, mRNA level read “decreased” (qRT-PCR, refers to: STH7; seedlings 10 days old; 20 µM, 24 h, together with: (+)-GR24 1 µM; reference: GR24 alone).
`COc1cccc(C(=O)Nc2cccc(-c3cn(Cc4ccccc4)nn3)c2)c1` has an IC50 of 14 µM (root growth; agar plates).
Under “time to degradation onset”, `CC(C)Oc1cccc(NC(=O)CCCN2C(=O)c3ccccc3C2=O)c1` is recorded as at most 10 min (reporter protein, refers to: DII-VENUS; 50 µM).
With `CN1C[C@H](c2cccc(C(F)(F)F)c2)[C@@H](C(=O)Nc2ccccc2F)C1=O` the N-carbamoyl-aspartate level was 24.2 ± 12.2 ng/g fresh weight (seedlings; 5 µM, 24 h).
Under hypocotyl length, `CC1=CC(OC=C2C(=O)OC3c4ccccc4CC23)OC1=O` (racemic) is recorded as “no effect” (Atd14-1 htl-3; concentration not given, red light).
Under “axillary bud outgrowth”, `O=C(Cc1ccc(O)c(O)c1)N(O)Cc1ccc(F)cc1` is recorded as “active” (excised Col-0 nodes; 100 µM, together with: NAA 1 µM).
`CC1=C(C)C(Oc2c(F)cc3c(C)cc(=O)oc3c2F)OC1=O` (racemic): hypocotyl elongation “no effect” (Atd14-1 mutant; concentration not given).
`O=C(Cc1ccc(O)cc1)N(O)Cc1ccccc1`: “advancement of bud outgrowth” 1 days (Col-0, excised stem nodes; 100 µM, together with: NAA 1 µM; reference: wild type).
`O=C(O)C1(O)Oc2cc(F)ccc2N(Cc2ccccc2)C1=O` (stereo not drawn): seed germination “inhibited” (Col-0; 50 µg/mL).
